Published values gathered from unrelated publications.
Numbered parts are unrelated; each lists some results of a single study. Positions count from the first letter of the parent shown.

Study 1
Target: Hepatocyte nuclear factor 3-alpha (Foxa1, Mus musculus, UniProt P35582, residues 1-468, full length assumed)
Technique: EMSA with sequencing
Form: double-stranded DNA, one strand shown
Medium: in vitro
Tested at: 10 and 20 nM
Setting: whole designed probe, mean of two concentrations, ends assumed
Relative to: negative control set to 0
Reading: higher = stronger binding
Residues (chain): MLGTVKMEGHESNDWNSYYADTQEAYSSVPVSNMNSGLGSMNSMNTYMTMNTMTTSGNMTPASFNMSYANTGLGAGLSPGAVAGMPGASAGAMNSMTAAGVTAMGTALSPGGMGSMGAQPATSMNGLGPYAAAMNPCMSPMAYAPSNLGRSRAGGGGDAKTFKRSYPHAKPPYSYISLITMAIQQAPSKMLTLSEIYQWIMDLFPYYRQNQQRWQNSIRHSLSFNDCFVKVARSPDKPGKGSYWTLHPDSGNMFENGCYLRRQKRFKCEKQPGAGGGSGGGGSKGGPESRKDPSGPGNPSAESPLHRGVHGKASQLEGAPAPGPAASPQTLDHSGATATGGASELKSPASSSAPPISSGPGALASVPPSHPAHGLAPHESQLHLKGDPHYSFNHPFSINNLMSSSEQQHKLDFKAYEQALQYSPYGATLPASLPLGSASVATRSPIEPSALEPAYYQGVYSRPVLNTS
Strand | normalised bound fraction [ratio]
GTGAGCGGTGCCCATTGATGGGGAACACGGAAAGTATGTTGCTGGGGCACAACATTCCAACCACCGCTCTCACAGCAGTACAAGTATCTCATTCTTCACCTTTTAAAATATTTGCCTCTAGATTATATAGTGCCTGCAAGATTGCAGAGCACATTCACTGGACACTTTTTCATGGGCTCAGAGGGGGTTTGCATTGCAATGAATCTGAGAGGTCATTCTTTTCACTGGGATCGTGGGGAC | -0.055
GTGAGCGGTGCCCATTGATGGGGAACAGGTGAATTGGCTGCTTCCATCCTGGCTTGGAACTTCAGACATAGAAGCCTTGGGACTTTCTCAGGACTTTCTCCAGACTGACTCATGCTTCAGCAAACAAGCATCTCTGTGGATCACGTGACCTTAGCCAGGGATGTTGGTGAAACTGTGTGTTGGTCTAGGTACCTAGCCCATGCTAGGTGCTCATCGAATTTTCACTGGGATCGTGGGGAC | 0.155
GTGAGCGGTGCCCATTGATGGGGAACCCACTACTTTCTTGGCCACCGCTTCCTGGAGCTTGTGTTCCTGGAAGCCAGCCATAAATAAGCCGGCCATAAACGAGGGTAAACAGGTGCCTGAGTAAACACACCAGAGCAAATGAGTCATATGGGCCGGCAGAGATGAACCTGGGGCCATGGCGGGTGTAGGGGTTGGGTGGGGAGAGGATGTCCTCTGAAATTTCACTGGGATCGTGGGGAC | 0.455
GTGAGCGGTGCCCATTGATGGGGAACATCTTCCCCCTCTTCCTTGCCCCACCAGCTCACCTTCCCGGGTATATTGGAGATAGGAAAATAAATAAAGCCGGCATTCGTTAACCCTCTTCTGGCGCAAACTGCTGTTTGCTCTGGATGAATCATGGTCCTTTGGCGACGCCAGGCTCCGGGAGAGCAAAGCACCGTGTCAGGGCCATGATCCGGGGTGGCCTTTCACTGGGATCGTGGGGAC | 0.31
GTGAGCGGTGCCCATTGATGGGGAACATCTTCCCCCTCTTCCTTGCCCCACCAGCTCACCTTCCCGGGTTATTTAAATAAAAGAGCTTAAAGGAAGCCGGCATTCGTTAACCCTCTTCTGGCGCAAACTGCTGTTTGCTCTGGATGAATCATGGTCCTTTGGCGACGCCAGGCTCCGGGAGAGCAAAGCACCGTGTCAGGGCCATGATCCGGGGTGGCCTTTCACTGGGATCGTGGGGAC | 0.244
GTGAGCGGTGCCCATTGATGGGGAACATGAAGGGCTGCCAGTGTAATTTGAACCTCAAATAAACAACAGATAAAACTGTAGTATAAGTAATTGCACAACTGTCCCATATACGATCTTTTTGTTTGCCTAATCTGGCAAAGATATTGACTTAACACACACTAATCTGTTGACAGGTAGGTGAAATATTTGAACTTCTACGTTGCTTCTCTAATCCTGTCCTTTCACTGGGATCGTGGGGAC | 0.391
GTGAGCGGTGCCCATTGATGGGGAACAAATAAGAAGCACATGTTAACTATTTAAAGTGCCTGGGAGTGTGATTCTTAATAACAAGACCAGGTGACTGCTAACAAGCCCAGGTGAGAAAAGTAATCTAGCTATGACTCAAACCCAGTCTACCTATTGAATTACGAACTTGCTTCCGAAGAACCAGACAGAGAGTCCTAAACCGGTCAAAAGCAAAGCAGGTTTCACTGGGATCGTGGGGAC | 0.0449
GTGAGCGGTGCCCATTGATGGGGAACCGTGTCCTACCATGCGGCTTAAGACTTCTCCAAAACACCGTCCCCCCAAATCCAATAAAATTGCAAATTTCACTGTATTTCACAATATCCTAAATAATCTTGAACAGCATGCGTTTCTCTTCCTTGCATCAAATATTAATCTGCCCGTGGCCAGCGCCCGCTCCCCCGCGTGTGTGCGCACGCTGGGTAATCTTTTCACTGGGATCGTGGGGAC | -0.0477

Study 2
Target: Sox, HMG box (Pigoraptor chileana)
Technique: Spec-seq
Form: double-stranded DNA, one strand shown
Medium: in vitro
Tested at: not given
Setting: whole probe, mean of replicates
Relative to: not given
Reading: lower = stronger binding
All sequences stand within: GAGTCGTCTCGTCAGCAC … CCGTAGAGCACTCAGGTC
Residues (chain): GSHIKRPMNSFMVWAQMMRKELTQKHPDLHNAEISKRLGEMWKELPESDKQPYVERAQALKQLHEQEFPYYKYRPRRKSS
Strand | relative binding energy [ln ratio]
CGCCGTT | 1.02
GTTTGTT | -2.09
CATCCAC | 0.334
CATACCC | 0.52
CATCAAA | 0.0595
CATAGGG | -0.409
TCGAGTT | 1.1
GATGGTT | 0.953

Study 3
Target: CCNA2, cyclin fold, Cln2 fusion (human)
Technique: yeast growth competition, sequencing
Medium: yeast
Setting: strong parent motif
Relative to: not given
Reading: higher = stronger binding
Parent: viral docking peptide; KGVKRKLFAEDSS
Change | normalised enrichment score
KGVKRKTFAEDSS [L7T] | 0.935
KGVKRKLFAEDMS [S12M] | 5.92
KGVKIKLFAEDSS [R5I] | 3.25
KGVKRKLFAEDQS [S12Q] | 5.75
KGVKRKLFEEDSS [A9E] | 6.15
KGVKRKLFAHDSS [E10H] | 5.38
KGVKRKLFAEDPS [S12P] | 6.77
KGVTRKLFAEDSS [K4T] | 3.75
KGVKRKKFAEDSS [L7K] | 0.383
KGVKRHLFAEDSS [K6H] | 3.42
KGAKRKLFAEDSS [V3A] | 6.52
KGVHRKLFAEDSS [K4H] | 4.91
KGVKRKLFAEHSS [D11H] | 6.06
KGVKRKFFAEDSS [L7F] | 0.783
KGVERKLFAEDSS [K4E] | 1.84
AGVKRKLFAEDSS [K1A] | 6.47
KGVKRKLFAETSS [D11T] | 6.35
KGVKRKLFACDSS [E10C] | 5.65
KGVKRKLLAEDSS [F8L] | 1.72
KPVKRKLFAEDSS [G2P] | 6.59
KGVKRKLFATDSS [E10T] | 5.89
KGVKRKLFAKDSS [E10K] | 4.66
KGVKEKLFAEDSS [R5E] | 0.819
KGVKRFLFAEDSS [K6F] | 1.5
KIVKRKLFAEDSS [G2I] | 5.9

Study 4
Target: CRIPT, C-terminal peptide
Technique: DHFR complementation, deep sequencing
Medium: yeast
Setting: single substitutions, model-inferred values
Relative to: wild type
Reading: higher = weaker binding
Parent: ERBIN, PDZ domain 1 (human); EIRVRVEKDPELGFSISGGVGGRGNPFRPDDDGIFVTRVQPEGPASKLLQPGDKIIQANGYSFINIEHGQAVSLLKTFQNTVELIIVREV; partner TKNYKQTSV
Change | binding free energy change
G19M | 1.22 kcal/mol
I85F | -0.0281 kcal/mol
F27V | 0.784 kcal/mol
N25Q | 0.694 kcal/mol
G33T | 1.24 kcal/mol
P26K | 0.859 kcal/mol
T37D | 1.15 kcal/mol
G43I | 1.13 kcal/mol

Other studies, line by line
Tested at: 10 µM
Compound | tested on | assay | setting | scale | endpoint | result
O[C@H]1[C@H](O)[C@@H](O)CN2CC[C@H](O)[C@H]12 | mouse MPNST tumor cells | high-content nuclear imaging, measured: cell number | 12 h, mean of 2 replicates | relative to: plate mean, higher = more cells | nuclei count | 0.154 z-score
C=CCN1CC[C@]23c4c5ccc(O)c4O[C@H]2C(=O)CC[C@@]3(O)[C@H]1C5 | Sarcocystis neurona | parasite activity | 96 h |  | activity class | inactive
